Results pooled from the literature.
A part holds a random share of what one study measured.
Sequence of UniProt Q08881 (whole entry, looked up): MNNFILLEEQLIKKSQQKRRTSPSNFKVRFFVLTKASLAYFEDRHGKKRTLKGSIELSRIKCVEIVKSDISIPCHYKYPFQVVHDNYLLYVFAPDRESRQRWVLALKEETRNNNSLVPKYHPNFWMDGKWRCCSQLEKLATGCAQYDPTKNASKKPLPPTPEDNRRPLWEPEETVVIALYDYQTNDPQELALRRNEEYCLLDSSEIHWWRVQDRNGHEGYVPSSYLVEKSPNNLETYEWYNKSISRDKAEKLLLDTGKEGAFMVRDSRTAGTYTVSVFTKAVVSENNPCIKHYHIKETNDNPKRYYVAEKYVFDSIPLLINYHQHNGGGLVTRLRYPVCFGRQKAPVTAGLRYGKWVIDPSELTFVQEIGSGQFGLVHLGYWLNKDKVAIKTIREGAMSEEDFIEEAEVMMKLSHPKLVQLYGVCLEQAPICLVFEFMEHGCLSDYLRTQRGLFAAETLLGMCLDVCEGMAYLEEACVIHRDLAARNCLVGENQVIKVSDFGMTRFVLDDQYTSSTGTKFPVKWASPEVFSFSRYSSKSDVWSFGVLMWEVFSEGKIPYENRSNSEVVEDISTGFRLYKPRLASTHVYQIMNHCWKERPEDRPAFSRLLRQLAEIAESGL
Sequence of UniProt Q99759 (whole entry, looked up): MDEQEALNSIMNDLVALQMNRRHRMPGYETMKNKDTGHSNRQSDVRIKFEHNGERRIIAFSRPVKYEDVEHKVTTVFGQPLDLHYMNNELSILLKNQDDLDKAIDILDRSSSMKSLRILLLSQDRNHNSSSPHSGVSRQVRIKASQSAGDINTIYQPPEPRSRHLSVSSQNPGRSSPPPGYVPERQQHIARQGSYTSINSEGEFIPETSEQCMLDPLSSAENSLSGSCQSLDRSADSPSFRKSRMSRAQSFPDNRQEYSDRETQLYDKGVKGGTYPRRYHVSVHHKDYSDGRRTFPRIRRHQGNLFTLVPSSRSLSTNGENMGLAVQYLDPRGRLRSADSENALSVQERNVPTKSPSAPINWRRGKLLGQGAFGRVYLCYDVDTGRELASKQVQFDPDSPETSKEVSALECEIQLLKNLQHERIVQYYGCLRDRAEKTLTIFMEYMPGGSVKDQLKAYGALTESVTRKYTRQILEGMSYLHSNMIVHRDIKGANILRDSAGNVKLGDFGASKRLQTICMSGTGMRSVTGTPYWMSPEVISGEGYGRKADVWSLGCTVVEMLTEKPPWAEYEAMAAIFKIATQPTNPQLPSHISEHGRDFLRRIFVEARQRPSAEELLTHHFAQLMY
Sequence of UniProt Q9NY57 (whole entry, looked up): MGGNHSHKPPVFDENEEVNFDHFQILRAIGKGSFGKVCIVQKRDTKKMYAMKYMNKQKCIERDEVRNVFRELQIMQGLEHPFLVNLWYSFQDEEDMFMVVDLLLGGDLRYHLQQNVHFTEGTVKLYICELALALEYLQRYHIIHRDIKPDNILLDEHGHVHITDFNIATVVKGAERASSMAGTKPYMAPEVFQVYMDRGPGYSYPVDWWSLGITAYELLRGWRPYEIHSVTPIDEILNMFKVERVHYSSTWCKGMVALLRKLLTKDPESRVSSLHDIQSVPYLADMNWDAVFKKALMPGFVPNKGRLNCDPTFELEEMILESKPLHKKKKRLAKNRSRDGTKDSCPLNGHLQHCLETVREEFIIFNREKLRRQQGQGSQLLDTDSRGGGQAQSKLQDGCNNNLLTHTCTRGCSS
Sequence of UniProt O60674 (whole entry, looked up): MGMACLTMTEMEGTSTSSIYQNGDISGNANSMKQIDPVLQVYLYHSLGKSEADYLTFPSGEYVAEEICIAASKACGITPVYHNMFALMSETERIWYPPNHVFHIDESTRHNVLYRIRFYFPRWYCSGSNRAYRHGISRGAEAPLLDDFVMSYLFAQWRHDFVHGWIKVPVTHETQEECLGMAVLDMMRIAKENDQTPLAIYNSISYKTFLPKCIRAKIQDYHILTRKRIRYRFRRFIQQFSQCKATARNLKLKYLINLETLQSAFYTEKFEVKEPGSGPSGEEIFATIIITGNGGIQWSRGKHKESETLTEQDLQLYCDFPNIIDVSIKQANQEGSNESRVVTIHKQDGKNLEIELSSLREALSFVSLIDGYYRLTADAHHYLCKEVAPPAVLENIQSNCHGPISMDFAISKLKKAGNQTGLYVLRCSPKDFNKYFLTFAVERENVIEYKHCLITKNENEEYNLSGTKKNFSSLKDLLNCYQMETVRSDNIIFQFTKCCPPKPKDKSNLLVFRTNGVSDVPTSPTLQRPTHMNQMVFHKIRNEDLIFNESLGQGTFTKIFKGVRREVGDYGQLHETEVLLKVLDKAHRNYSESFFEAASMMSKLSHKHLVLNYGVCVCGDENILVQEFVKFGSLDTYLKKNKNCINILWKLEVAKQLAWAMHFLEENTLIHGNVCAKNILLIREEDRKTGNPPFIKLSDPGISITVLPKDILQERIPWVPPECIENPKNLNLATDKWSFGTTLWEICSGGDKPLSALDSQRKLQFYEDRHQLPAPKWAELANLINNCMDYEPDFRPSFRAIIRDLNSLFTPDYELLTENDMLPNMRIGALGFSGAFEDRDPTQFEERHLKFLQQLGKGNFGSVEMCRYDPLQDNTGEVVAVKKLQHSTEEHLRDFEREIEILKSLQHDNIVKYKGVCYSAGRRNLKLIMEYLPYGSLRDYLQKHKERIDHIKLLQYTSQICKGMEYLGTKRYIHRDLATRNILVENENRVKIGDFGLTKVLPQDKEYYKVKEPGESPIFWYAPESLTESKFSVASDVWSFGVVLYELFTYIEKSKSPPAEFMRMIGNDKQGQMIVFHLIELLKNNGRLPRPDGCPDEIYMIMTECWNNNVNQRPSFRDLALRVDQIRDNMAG
Sequence of UniProt P42336 (whole entry, unmodified, looked up): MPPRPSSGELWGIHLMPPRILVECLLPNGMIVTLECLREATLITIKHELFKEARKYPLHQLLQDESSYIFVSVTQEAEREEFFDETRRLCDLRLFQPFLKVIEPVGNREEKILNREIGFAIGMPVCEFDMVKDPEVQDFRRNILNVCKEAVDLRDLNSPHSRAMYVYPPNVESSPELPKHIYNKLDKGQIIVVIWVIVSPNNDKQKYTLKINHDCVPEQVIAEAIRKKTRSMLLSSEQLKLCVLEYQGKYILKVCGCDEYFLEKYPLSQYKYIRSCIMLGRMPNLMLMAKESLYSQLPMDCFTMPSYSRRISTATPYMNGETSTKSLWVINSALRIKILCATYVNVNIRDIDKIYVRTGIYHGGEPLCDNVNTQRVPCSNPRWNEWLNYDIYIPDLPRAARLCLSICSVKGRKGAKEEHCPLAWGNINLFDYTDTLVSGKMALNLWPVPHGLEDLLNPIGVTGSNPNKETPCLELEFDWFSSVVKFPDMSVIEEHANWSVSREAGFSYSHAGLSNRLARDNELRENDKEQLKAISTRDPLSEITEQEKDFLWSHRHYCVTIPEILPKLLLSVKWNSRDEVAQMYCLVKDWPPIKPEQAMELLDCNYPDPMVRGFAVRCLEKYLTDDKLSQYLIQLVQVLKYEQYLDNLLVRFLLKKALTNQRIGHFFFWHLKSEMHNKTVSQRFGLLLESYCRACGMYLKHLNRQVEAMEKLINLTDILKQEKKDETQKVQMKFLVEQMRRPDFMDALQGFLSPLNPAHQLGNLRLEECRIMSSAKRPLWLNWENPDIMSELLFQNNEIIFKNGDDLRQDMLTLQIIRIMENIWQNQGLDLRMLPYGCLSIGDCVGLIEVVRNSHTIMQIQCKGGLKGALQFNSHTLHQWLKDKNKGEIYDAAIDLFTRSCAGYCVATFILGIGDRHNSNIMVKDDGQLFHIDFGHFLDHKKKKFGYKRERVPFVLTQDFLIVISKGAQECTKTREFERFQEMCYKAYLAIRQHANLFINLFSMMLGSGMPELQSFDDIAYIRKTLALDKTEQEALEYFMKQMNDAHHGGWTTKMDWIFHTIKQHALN
Sequence of UniProt O94806 (whole entry, looked up): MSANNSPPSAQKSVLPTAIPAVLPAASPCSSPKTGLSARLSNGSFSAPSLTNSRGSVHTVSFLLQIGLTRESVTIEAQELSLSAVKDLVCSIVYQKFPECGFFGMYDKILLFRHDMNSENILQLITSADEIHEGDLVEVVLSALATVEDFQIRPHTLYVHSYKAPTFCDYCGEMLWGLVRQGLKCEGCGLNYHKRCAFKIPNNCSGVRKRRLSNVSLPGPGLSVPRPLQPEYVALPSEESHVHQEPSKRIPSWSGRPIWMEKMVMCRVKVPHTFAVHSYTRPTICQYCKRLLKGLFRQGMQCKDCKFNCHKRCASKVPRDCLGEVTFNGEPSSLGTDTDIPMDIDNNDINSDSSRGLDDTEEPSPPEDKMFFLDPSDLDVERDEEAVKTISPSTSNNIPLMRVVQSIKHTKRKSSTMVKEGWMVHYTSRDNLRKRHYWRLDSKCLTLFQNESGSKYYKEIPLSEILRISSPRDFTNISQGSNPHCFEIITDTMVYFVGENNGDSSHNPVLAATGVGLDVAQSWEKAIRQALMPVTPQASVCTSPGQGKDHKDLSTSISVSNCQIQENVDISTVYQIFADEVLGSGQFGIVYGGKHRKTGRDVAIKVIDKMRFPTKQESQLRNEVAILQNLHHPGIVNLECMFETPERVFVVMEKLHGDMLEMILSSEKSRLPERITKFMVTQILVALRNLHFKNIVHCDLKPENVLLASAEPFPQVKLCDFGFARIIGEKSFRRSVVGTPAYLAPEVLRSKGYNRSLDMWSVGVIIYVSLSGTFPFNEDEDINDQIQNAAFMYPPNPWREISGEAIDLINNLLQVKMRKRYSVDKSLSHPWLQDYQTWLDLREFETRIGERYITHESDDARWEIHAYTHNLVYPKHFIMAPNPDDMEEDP

Block 1
Observed: AlphaScreen signal
Method: AlphaScreen counter screen
Sample: His6 peptide without bromodomain
Tested at: 50 µM
Notes: assay interference check
SMILES | inhibition
Cc1ccc(C=C(C#N)c2nc3ccccc3s2)o1 | 31.6%
Cc1nc(Nc2ncc(C(=O)Nc3c(C)cccc3Cl)s2)cc(N2CCN(CCO)CC2)n1 | 23%
O=[N+]([O-])c1ccc(-c2cc(C(F)(F)F)[nH]n2)cc1 | 23.6%

Block 2
SMILES: Cc1cc(C)c(-n2ccn3nc(-c4cccnc4)cc23)cc1NC(=O)c1cc(C#N)cc(S(F)(F)(F)(F)F)c1
Observed: cell-free assay
Method: competition with immobilised ligand
Tested at: 0.1 µM
target | remaining binding
INSRR (Homo sapiens, UniProt P14616) | 91.8%
MET (Homo sapiens, UniProt P08581, Y1235D) | 93.4%
STK32B (Homo sapiens, UniProt Q9NY57) | 94.3%
PIK3CA (Homo sapiens, UniProt P42336, E545K) | 77.8%
PIK3CG (Homo sapiens, UniProt P48736) | 98.5%
ITK (Homo sapiens, UniProt Q08881) | 84.9%
PRKD3 (Homo sapiens, UniProt O94806) | 97%
MAP3K3 (Homo sapiens, UniProt Q99759) | 67.3%
DAPK1 (Homo sapiens, UniProt P53355) | 94.1%
MAK (Homo sapiens, UniProt P20794) | 77.2%
CDK8 (Homo sapiens, UniProt P49336) | 76.7%
Tyrosine-protein kinase JAK2, JH1 (JAK2, Homo sapiens, UniProt O60674) | 81.8%
SBK3 (Homo sapiens, UniProt P0C264) | 100%

Block 3
Target: PABPC1L2, full length, GST fusion (mouse, UniProt A0ABA7IW68)
Method: RNAcompete
Molecule type: RNA
Sample: in vitro
Tested at: 20 nM
Notes: 7-mer, probes averaged, single round
Reference: mean of 7-mers
Reading: higher = stronger binding
Target sequence (chain): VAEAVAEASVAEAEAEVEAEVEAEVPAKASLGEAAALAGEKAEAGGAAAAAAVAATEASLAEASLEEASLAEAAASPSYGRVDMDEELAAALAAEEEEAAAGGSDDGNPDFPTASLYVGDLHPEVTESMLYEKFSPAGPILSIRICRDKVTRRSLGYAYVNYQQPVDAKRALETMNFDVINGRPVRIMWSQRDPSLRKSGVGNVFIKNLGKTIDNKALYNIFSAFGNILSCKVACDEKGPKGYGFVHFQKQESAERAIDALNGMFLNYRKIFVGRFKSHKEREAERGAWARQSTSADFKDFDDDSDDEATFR
Oligonucleotide | 7-mer Z-score
GUCCGGA | -0.179
CGCUAAA | 0.566
CCGAUGA | -0.155
GAAACGU | -0.0627
GCCUCAU | -0.262
CUCAGAC | -0.0446
ACGGAGA | 0.0207
GCGCUAU | -0.269

Mixed results
Compound | cell line | test | conditions | scale | quantity | result
Oc1c(I)cc(Cl)c2cccnc12 | A-375 | – | 100 µM, 36 h | – | viability | 11.2%
C=CC[N@@+]12CC[C@@]34c5ccccc5N5/C=C6/[C@H]7C[C@H]8[C@@]9(CC[N@@+]8(CC=C)C/C7=C/CO)c7ccccc7N(/C=C(/[C@@H](C[C@@H]31)/C(=C\CO)C2)[C@H]54)[C@@H]69 | mouse MPNST tumor cells | high-content nuclear imaging, measured: cell number | 10 µM, 12 h, mean of 2 replicates | reference: plate mean, higher = more cells | nuclei count | 0.335 z-score
O=C(Nc1ncc([N+](=O)[O-])s1)c1ccccc1O | A-375 | – | 100 µM, 36 h | – | viability | 31.1%
Nc1ccc(/N=N/c2ccccc2)c(N)n1 | mouse MPNST tumor cells | high-content nuclear imaging, measured: cell number | 10 µM, 12 h, mean of 2 replicates | reference: plate mean, higher = more cells | nuclei count | 2.23 z-score
C[C@@H]1O[C@@H](OC[C@H]2O[C@@H](Oc3c(-c4ccc(OCCO)c(OCCO)c4)oc4cc(OCCO)cc(O)c4c3=O)[C@H](O)[C@@H](O)[C@@H]2O)[C@H](O)[C@H](O)[C@H]1O | A-375 | – | 100 µM, 36 h | – | viability | 108%
